Published values of several laboratories.
Lines come from different studies, so protocols differ. ± gives the spread as reported.
IDE: Insulin-degrading enzyme (IDE, Homo sapiens, UniProt P14735)
Cereblon/Ikaros: Cereblon/Ikaros (Homo sapiens, UniProt Q13422+Q96SW2)
Chain of UniProt Q96SW2 (whole entry, looked up): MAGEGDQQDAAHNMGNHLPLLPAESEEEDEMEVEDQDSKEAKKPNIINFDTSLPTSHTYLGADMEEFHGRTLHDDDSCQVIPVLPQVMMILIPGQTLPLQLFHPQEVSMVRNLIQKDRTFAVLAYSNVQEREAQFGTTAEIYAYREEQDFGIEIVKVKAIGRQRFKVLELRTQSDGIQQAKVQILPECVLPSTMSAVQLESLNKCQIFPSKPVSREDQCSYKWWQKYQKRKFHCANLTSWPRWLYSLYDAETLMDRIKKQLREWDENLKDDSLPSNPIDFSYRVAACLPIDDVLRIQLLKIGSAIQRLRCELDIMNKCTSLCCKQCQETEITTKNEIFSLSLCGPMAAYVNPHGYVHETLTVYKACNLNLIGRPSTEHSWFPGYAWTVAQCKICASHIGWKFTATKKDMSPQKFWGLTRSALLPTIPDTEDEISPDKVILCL
Chain of UniProt Q13422 (whole entry, looked up): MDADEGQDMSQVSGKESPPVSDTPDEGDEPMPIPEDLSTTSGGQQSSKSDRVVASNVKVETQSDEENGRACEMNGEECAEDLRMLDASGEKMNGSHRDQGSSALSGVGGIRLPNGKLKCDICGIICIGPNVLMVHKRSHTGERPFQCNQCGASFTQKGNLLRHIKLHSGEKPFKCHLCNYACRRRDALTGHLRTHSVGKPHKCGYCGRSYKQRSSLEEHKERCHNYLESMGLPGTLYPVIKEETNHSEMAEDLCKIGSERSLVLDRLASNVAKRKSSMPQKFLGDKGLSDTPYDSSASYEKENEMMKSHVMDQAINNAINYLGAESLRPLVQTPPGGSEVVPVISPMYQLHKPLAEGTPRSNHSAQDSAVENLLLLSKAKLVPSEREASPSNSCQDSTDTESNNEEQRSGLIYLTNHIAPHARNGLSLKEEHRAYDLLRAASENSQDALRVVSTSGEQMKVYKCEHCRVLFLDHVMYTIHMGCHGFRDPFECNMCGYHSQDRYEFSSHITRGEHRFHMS
USP33 ZnF-UBD domain: Ubiquitin carboxyl-terminal hydrolase 33, ZnF-UBD domain (USP33, Homo sapiens, UniProt Q8TEY7)
Chain of UniProt Q8TEY7 (whole entry, looked up): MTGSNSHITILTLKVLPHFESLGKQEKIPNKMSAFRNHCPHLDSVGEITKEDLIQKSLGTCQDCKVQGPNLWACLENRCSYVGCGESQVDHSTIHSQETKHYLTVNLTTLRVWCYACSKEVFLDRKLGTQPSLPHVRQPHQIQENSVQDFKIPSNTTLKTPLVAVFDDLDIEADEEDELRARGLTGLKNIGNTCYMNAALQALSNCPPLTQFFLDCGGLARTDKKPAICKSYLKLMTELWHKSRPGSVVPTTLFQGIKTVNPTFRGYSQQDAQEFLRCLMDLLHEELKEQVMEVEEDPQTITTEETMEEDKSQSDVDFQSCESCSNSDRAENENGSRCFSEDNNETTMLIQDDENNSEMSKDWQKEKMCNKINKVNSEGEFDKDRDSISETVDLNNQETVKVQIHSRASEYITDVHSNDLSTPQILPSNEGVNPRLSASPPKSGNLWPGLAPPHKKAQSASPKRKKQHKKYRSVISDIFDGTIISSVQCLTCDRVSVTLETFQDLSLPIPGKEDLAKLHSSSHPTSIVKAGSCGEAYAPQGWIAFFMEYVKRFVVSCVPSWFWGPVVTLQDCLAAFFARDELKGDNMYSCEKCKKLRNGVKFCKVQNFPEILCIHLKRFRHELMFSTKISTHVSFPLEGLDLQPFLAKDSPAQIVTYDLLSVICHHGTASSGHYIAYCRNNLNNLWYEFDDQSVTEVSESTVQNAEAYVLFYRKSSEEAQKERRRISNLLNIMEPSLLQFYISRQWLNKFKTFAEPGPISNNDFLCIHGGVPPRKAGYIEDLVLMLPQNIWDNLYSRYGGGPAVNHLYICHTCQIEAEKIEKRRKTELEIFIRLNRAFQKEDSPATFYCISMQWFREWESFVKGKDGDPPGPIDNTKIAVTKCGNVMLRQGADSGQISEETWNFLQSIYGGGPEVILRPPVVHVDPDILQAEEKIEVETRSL
Chain of UniProt Q13336 (whole entry, looked up): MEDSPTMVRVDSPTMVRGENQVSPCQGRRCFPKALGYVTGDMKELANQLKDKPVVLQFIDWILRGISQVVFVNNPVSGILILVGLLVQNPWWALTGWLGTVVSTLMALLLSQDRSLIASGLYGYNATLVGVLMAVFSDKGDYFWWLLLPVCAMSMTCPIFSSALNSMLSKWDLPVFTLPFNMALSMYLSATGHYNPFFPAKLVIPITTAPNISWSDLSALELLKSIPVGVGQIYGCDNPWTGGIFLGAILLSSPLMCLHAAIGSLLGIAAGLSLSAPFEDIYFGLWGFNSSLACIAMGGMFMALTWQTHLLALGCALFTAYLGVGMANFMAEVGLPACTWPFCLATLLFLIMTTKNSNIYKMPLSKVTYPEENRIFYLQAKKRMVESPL
Chain of UniProt P00747 (whole entry, looked up): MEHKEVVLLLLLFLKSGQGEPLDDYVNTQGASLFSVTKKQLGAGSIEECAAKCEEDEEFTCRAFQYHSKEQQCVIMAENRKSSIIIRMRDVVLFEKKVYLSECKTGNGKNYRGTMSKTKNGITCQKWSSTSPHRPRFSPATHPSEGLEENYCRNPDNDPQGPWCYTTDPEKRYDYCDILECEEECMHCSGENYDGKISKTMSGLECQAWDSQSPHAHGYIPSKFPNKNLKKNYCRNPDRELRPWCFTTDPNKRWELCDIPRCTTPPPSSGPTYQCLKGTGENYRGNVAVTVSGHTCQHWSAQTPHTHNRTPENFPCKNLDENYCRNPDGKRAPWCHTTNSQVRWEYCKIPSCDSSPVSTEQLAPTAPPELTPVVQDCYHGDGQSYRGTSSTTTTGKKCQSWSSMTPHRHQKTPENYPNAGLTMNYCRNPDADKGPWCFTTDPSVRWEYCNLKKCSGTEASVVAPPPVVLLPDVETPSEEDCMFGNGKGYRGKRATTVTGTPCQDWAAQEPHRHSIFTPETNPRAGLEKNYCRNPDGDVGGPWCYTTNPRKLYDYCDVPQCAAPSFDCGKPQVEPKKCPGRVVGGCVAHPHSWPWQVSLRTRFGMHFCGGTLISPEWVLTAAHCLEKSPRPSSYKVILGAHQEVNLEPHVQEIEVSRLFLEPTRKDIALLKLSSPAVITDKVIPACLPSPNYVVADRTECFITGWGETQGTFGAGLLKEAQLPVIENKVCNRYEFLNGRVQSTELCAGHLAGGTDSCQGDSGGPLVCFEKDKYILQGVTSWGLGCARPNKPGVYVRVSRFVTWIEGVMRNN

SMILES	target	test	test system	setting	endpoint	result
CN1C(=O)c2cc(NC(=O)Nc3ccccc3Cl)ccc2OC[C@H]2O[C@H](CC(=O)NCCCN3CCOCC3)CC[C@@H]21	IDE	enzyme activity, inhibitor, fluorogenic kinetic	–	with: Mca-RPPGFSAFK(Dnp)-OH substrate	EC50	1.7 µM
CCC(C)(NCCc1ccc(C(F)(F)F)cc1Cl)c1cccc(NC2=CC(=O)N(C3CCC(=O)NC3=O)C2=O)c1 (stereo not drawn)	Cereblon/Ikaros	degrader	–	–	DC50	0.13 ± 0.044 µM
O=C(O)Cc1nc2ccccc2o1	USP33 ZnF-UBD domain	–	–	–	Kd	368 µM
Cc1cc(NC2=CC(=O)N(C3CCC(=O)NC3=O)C2=O)cc(C(C)(C)NCCc2ccc(C(F)(F)F)c(Cl)c2)c1 (stereo not drawn)	Cereblon/Ikaros	degrader, HiBiT luminescence, item: endogenous HiBiT-tagged protein	–	–	DC50	0.61 ± 0.4 µM
Cc1ccc(CCC(=O)Nc2nnc(S(N)(=O)=O)s2)cc1	Enterococcus faecium γ-carbonic anhydrase	CO2 hydration, inhibitor, stopped-flow kinetics	–	–	Ki	0.0623 µM
CC(=S)Nc1ccccc1	Urea transporter 1 (Homo sapiens, UniProt Q13336)	urea transport inhibition	–	with: thiourea	Ki	1000 µM
O=C1CCC(N2Cc3cc(NC(=O)c4cccc(F)c4)ccc3C2=O)C(=O)N1 (stereo not drawn)	Cereblon/Ikaros	degrader, live-cell HiBiT kinetic	Jurkat Ikaros-HiBiT LgBiT	–	DC50	> 10 µM
O=C1CCC(N2C(=O)C=C(Nc3cccc(-c4cn(CCc5ccc(C(F)(F)F)c(Cl)c5)nn4)c3)C2=O)C(=O)N1 (stereo not drawn)	Cereblon/Ikaros	degrader, HiBiT luminescence, item: endogenous HiBiT-tagged protein	–	–	DC50	0.02 ± 2 µM
Cc1cccc(-c2ccc([C@@H]3[C@@H](CO)N4C/C=C\CN(S(=O)(=O)c5cnc6n5CCCCC6)C[C@@H]34)cc2)c1C	IDE	enzyme activity, inhibitor, fluorescence kinetic	–	with: Mca-RPPGFSAFK(Dnp)-OH substrate	EC50	0.042 µM
NS(=O)(=O)c1cnc(NC(=O)CCc2ccccc2)s1	Enterococcus faecium γ-carbonic anhydrase	CO2 hydration, inhibitor, stopped-flow kinetics	–	–	Ki	0.904 µM
Cc1ccccc1-c1ccc([C@H]2[C@H]3CN(C(=O)NC4CCCC4)CCCCN3[C@H]2CO)cc1	IDE	enzyme activity, inhibitor, fluorogenic kinetic	–	with: Mca-RPPGFSAFK(Dnp)-OH substrate	EC50	5.6 µM
COc1ccc(C=C2SC(=O)N(C(C)C(=O)O)C2=O)cc1 (stereo not drawn)	USP33 ZnF-UBD domain	–	–	–	Kd	> 1000 µM
NS(=O)(=O)c1nnc(NC(=O)CCCC2CCCCC2)s1	Enterococcus faecium γ-carbonic anhydrase	CO2 hydration, inhibitor, stopped-flow kinetics	–	–	Ki	0.679 µM
O=C(O)Cc1nc2ccccc2[nH]1	USP33 ZnF-UBD domain	–	–	–	Kd	> 1000 µM
Cc1ccccc1S(=O)(=O)N1CCCCN2[C@H](CO)[C@@H](c3ccc(-c4ccccc4)cc3)[C@@H]2C1	IDE	enzyme activity, inhibitor, fluorescence kinetic	–	with: Mca-RPPGFSAFK(Dnp)-OH substrate	EC50	0.41 µM
COCc1nn(Cc2ccc(Cn3ccccc3=O)cc2)cc1C(=O)NCc1c(Cl)ccc(OC)c1F	Plasminogen (PLG, Homo sapiens, UniProt P00747)	–	–	–	IC50	> 40 µM
COc1cccc(-c2ccc([C@@H]3[C@@H](CO)N4CCCCN(CC5CC5)C[C@@H]34)cc2)c1	IDE	enzyme activity, inhibitor, fluorogenic kinetic	–	with: Mca-RPPGFSAFK(Dnp)-OH substrate	EC50	22.5 µM
NS(=O)(=O)c1nnc(NC(=O)C2CCC3(CCC3)CC2)s1	Enterococcus faecium γ-carbonic anhydrase	CO2 hydration, inhibitor, stopped-flow kinetics	–	–	Ki	0.23 µM
